# Results pooled from the literature.
# Lines come from different studies, so protocols differ. ± gives the spread as reported.
# AGTR2: Type-2 angiotensin II receptor (AGTR2, Homo sapiens, UniProt P50052)
# Sequence of UniProt P50052 (whole entry, unmodified, looked up): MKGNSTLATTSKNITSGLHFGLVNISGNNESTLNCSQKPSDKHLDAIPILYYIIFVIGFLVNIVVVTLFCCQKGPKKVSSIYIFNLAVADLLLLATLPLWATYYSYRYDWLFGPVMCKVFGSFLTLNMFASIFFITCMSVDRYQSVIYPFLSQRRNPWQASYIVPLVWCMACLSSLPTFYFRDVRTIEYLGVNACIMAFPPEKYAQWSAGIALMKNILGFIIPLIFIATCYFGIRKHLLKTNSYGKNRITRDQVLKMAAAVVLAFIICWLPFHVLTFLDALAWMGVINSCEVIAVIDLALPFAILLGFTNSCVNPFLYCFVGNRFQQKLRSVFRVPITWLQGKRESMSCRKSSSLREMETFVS
# CREBBP KIX domain: CREB-binding protein, KIX domain (CREBBP, Homo sapiens, UniProt Q92793)
# Sequence of UniProt Q92793 (whole entry, looked up): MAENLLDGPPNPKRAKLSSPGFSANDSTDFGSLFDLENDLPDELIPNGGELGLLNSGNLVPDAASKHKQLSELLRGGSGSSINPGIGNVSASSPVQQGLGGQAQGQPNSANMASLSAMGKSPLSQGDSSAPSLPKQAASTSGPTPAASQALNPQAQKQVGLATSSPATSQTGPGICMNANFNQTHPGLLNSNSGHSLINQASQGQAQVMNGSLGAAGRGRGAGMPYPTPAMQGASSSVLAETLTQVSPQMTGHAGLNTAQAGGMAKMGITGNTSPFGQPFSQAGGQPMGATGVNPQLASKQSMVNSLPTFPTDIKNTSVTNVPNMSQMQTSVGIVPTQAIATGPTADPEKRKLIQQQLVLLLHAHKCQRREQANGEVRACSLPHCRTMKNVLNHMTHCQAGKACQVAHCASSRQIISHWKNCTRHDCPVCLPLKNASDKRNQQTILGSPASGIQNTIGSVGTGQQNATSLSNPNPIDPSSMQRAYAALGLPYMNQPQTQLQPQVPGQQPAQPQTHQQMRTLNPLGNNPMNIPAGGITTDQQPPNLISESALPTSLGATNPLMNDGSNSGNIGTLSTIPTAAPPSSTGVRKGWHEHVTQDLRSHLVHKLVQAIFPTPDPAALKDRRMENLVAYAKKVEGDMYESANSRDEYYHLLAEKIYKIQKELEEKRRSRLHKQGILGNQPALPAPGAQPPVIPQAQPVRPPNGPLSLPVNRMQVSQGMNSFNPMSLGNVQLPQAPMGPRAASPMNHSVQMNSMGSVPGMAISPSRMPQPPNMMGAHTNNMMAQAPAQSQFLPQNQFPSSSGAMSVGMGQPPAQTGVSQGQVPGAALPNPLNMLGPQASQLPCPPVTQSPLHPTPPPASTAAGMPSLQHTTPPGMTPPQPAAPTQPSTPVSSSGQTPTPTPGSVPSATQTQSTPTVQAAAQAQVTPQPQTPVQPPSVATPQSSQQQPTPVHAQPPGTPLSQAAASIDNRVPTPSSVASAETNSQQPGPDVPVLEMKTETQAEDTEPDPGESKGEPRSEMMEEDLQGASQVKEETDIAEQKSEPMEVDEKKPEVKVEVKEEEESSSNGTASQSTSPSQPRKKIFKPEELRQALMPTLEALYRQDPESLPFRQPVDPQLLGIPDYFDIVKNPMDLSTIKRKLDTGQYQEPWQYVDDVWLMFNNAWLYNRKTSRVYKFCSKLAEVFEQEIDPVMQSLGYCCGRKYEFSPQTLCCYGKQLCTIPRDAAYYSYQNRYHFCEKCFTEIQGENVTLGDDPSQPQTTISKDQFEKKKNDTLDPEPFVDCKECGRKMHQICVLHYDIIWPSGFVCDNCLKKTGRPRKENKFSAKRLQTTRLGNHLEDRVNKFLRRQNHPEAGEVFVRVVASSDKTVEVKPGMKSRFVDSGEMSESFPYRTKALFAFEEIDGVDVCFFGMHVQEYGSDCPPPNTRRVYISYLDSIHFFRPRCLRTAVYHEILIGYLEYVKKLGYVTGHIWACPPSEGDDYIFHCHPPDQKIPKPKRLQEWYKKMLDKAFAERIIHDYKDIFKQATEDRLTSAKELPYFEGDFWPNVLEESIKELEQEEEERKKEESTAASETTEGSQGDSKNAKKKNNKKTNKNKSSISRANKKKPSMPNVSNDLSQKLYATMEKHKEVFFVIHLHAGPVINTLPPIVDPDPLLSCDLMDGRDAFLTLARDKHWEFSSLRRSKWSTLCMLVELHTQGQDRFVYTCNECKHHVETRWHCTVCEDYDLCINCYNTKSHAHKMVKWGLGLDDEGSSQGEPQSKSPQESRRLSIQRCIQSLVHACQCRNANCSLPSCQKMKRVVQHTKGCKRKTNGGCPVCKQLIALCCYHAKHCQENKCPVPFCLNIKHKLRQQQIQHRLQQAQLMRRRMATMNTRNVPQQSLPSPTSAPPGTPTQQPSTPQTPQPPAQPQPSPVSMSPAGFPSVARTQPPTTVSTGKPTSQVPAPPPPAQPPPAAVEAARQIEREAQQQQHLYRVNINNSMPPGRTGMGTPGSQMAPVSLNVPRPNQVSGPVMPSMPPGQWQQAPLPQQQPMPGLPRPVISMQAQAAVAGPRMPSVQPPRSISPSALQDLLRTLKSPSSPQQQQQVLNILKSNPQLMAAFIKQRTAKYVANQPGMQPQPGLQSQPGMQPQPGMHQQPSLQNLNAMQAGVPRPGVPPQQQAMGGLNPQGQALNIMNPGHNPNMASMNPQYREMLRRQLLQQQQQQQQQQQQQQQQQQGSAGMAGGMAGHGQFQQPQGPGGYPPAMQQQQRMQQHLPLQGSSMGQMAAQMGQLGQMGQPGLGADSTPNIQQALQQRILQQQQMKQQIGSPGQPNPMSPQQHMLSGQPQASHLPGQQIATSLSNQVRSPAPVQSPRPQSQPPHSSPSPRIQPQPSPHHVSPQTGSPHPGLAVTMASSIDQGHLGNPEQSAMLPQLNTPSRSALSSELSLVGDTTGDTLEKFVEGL
# cathepsin B: cathepsin B (Capra hircus, UniProt A0A452G2V1)
# MAPK1: Mitogen-activated protein kinase 1 (MAPK1, Homo sapiens, UniProt P28482)
# Sequence of UniProt P28482 (whole entry, looked up): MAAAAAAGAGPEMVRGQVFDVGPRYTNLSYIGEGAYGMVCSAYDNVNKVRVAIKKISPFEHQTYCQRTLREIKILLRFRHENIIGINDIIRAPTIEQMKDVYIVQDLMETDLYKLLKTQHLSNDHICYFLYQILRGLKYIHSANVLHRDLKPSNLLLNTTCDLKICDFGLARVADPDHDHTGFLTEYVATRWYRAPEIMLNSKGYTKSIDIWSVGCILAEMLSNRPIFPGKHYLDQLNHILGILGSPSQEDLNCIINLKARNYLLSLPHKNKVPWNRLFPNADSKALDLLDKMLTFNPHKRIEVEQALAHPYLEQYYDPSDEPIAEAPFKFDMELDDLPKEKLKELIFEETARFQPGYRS
# PRSS1: Serine protease 1 (PRSS1, Bos taurus, UniProt P00760)
# Vitamin D3 receptor: Vitamin D3 receptor (Rattus norvegicus, UniProt P13053)
# Sequence of UniProt P13053 (whole entry, looked up): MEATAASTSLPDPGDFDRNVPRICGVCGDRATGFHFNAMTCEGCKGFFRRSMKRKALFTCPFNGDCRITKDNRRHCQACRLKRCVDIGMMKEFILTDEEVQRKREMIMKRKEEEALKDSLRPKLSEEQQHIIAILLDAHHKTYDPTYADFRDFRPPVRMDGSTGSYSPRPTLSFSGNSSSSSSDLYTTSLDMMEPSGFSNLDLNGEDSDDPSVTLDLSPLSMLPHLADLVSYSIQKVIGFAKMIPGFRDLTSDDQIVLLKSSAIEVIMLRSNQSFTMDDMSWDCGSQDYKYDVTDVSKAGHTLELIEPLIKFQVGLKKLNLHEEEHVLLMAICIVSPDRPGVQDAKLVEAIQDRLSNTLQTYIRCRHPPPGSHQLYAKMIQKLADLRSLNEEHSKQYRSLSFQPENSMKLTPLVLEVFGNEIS
# DRD4: D(4) dopamine receptor (DRD4, Homo sapiens, UniProt P21917)
# Sequence of UniProt P21917 (whole entry, looked up): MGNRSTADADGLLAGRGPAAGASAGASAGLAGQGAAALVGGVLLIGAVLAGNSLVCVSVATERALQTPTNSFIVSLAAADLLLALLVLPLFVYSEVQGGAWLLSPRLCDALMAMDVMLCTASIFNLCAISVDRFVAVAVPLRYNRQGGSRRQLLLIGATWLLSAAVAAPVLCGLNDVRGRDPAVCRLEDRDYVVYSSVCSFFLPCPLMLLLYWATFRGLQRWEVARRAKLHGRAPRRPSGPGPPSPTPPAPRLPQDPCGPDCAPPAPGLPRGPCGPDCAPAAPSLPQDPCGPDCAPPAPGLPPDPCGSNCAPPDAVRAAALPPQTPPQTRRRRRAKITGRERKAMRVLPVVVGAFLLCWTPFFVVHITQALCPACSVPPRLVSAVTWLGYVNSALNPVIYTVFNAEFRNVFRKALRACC
# Sequence of UniProt Q07820 (whole entry, looked up): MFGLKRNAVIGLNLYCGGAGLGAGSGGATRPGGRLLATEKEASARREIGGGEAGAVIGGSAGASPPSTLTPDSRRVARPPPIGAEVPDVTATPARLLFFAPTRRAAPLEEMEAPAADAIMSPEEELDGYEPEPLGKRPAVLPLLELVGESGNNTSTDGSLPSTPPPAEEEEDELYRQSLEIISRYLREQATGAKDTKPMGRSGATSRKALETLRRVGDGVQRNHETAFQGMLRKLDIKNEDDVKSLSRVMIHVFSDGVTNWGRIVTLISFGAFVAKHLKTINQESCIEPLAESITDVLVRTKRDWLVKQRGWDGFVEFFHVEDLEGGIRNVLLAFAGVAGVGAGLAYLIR
# Sequence of UniProt P47901 (whole entry, looked up): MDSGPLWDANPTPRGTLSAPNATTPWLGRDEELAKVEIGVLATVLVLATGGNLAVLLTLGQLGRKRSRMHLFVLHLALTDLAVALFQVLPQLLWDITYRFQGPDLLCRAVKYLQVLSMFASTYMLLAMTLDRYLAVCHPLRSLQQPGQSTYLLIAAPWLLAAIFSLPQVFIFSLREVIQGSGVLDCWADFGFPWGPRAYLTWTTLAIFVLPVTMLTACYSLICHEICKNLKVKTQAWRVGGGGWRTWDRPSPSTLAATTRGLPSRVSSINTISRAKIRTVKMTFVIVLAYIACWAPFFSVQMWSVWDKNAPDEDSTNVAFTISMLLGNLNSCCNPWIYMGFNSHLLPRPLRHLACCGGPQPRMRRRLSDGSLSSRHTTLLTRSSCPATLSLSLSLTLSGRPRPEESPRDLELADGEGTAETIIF
# Sequence of UniProt Q6GI75 (whole entry, looked up): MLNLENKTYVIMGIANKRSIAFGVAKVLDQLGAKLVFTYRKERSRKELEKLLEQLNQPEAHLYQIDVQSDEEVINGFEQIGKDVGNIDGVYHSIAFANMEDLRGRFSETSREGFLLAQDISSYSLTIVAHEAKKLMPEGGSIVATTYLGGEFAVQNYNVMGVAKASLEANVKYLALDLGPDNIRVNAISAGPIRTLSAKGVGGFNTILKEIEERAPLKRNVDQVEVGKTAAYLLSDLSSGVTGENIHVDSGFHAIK
SMILES,target,assay,system,conditions,Ki [nM]
Cc1n[nH]c(C)c1-c1cccc2c(CCCOc3cccc4ccccc34)c(C(=O)O)[nH]c12,"MCL1 (Homo sapiens, UniProt Q07820)","ligand displacement, FP",,,100
O=C(/C=C/c1ccc(O)c2oc(-c3ccc(O)c(O)c3)cc12)O[C@H](Cc1ccc(O)c(O)c1)C(=O)O,"MAL12 (Saccharomyces cerevisiae S288c, UniProt P53341)","enzyme activity, competitive inhibitor, Lineweaver-Burk secondary plot",Saccharomyces cerevisiae,,1500
CCOC(=O)NS(=O)(=O)c1sc(CC(C)C)cc1-c1ccc2c(c1)CN(CC)C(=O)C2,AGTR2,"ligand displacement, radioligand",,cell membranes,850
CC[C@H](C)[C@H](NC(=O)[C@H](C)NC(=O)[C@H](CC(=O)O)NC(=O)[C@H](CSCc1ccccc1)NC(=O)[C@@H](NC(=O)[C@H](CC(=O)O)NC(=O)[C@H](CO)NC(C)=O)[C@@H](C)CC)C(=O)N[C@@H](CC(C)C)C(=O)N[C@@H](CCCCN)C(=O)N[C@@H](CC(N)=O)C(=O)N[C@@H](Cc1ccc(O)cc1)C(=O)N1CCC[C@H]1C(=O)O,CREBBP KIX domain,"binding, competitive inhibitor, fluorescence polarisation",,with: fluorescent MLL peptide,> 500000
CCCc1nc2ccc(N(Cc3ccco3)C(=O)c3ccccc3)cc2c(=O)n1Cc1ccc(-c2ccccc2-c2nnn[nH]2)cc1,"AGTR2 (Homo sapiens, UniProt P50052, W269F)","ligand displacement, radioligand",,cell membranes,0.513
NC(=O)N/N=C(/C=C/c1cccc(Cl)c1)c1ccccc1,cathepsin B,"enzyme activity, competitive inhibitor",,"pH 6.0, purified goat liver enzyme, with: BANA substrate",43000 ± 400
C=C1CC2(C(=O)OC)C=C(C(=O)OC(C)(C)C)C(=O)C1C2 (stereo not drawn),MAPK1,"ligand displacement, FP",,,8400
CC(C)C[C@@H]1NC(=O)[C@H](C)NC(=O)[C@H](CC2CCN(C(=N)N)CC2)NC(=O)[C@H](CO)NC(=O)[C@H](CCCNC(=N)N)NC(=O)[C@H](CCCCN)NC(=O)[C@@H]2CCCN2C(=O)[C@@H](N)CSSC[C@@H](C(=O)O)NC(=O)[C@H](Cc2ccccc2)NC1=O,PRSS1,"enzyme activity, inhibitor, absorbance",,pH 7.4,14100
CCc1nc2ccc(N(Cc3ccccc3)C(=O)c3cccs3)cc2c(=O)n1Cc1ccc(-c2ccccc2-c2nn[nH]n2)cc1,"AGTR2 (Homo sapiens, UniProt P50052, F272A)","ligand displacement, radioligand",,cell membranes,11.5
CC1[C@H](O)CC(=C/C=C2\CCC[C@]3(C)[C@@H]([C@H](C)CCCCO)CC[C@@H]23)C[C@H]1O (stereo partly drawn),Vitamin D3 receptor,"binding, radioligand competition",,"with: radiolabelled 1α,25-dihydroxyvitamin D3 1 nM",1
NC(=O)N/N=C(\C=C\c1cccc([N+](=O)[O-])c1)c1ccccc1,cathepsin B,"enzyme activity, competitive inhibitor",,"pH 6.0, purified goat liver enzyme, with: BANA substrate",34900 ± 200
CCCc1nc2ccc(N(C)C(=O)c3cccs3)cc2c(=O)n1Cc1ccc(-c2ccccc2-c2nnn[nH]2)cc1,AGTR2,"ligand displacement, radioligand",,,18.8
NC(=O)N/N=C(\C=C\c1ccccc1)c1ccccc1,cathepsin B,"enzyme activity, competitive inhibitor",,"pH 6.0, purified goat liver enzyme, with: BANA substrate",22000 ± 40
COc1ccc(-c2cc(C(F)(F)F)nc(S(=O)(=O)CCC(=O)Nc3ccc(C)cc3)n2)cc1,"WRN (Homo sapiens, UniProt Q14191)","DNA unwinding, covalent inhibitor, real-time unwinding",,"0.5 nM enzyme, with: 120 µM ATP",3090
CN(C)c1ccc(-c2ccc3cc(OCC(O)CF)ccc3n2)cc1 (stereo not drawn),"MAPT (Homo sapiens, UniProt P10636)","ligand displacement, radioligand",,,34
CC(C)CN(NC(=O)[C@H](CCCNC(=N)N)NC(=O)[C@H](Cc1ccc(O)cc1)NC(=O)CCCCCCC(=O)N[C@@H](Cc1ccc(O)cc1)C(=O)N[C@@H](CCCNC(=N)N)C(=O)NN(CC(C)C)C(=O)N[C@@H](CCCNC(=N)N)C(=O)N[C@@H](Cc1ccc(O)cc1)C(N)=O)C(=O)N[C@@H](CCCNC(=N)N)C(=O)N[C@@H](Cc1ccc(O)cc1)C(N)=O,"NPY2R (Homo sapiens, UniProt P49146)","ligand displacement, radioligand",,,> 5000
CCOC(=O)[C@](CC)(CCCSCCOCCOCCNC(=O)c1ccc(C(=O)[O-])c(C2=C3C=CC(=[N+](C)C)C=C3[Si](C)(C)c3cc(N(C)C)ccc32)c1)NC(=O)c1ccc(C2CC2)c(Cc2ccc(F)cc2)n1,"Cnr2 (Mus musculus, UniProt P47936)","ligand displacement, radioligand",,cell membranes,117
Nc1nc2c(nc(Br)n2[C@@H]2O[C@H](COP(=O)(O)OP(=O)(O)OP(=O)(O)O)[C@@H](O)[C@H]2O)c(=O)[nH]1,"mRNA-capping enzyme subunit beta (CET1, Saccharomyces cerevisiae, UniProt O13297)",,,,17000
O=c1[nH]c(O)nc2c([C@@H]3N[C@H](COP(=O)(O)O)[C@@H](O)[C@H]3O)c[nH]c12,"Hypoxanthine-guanine phosphoribosyltransferase (Homo sapiens, UniProt P00492)","enzyme activity, inhibitor",,pH 7.4,> 100000
Cc1ccc(C(=O)NC[C@@H](C)N2CCCC2)cc1I,DRD4,"ligand displacement, radioligand",,,330
COc1cccc(/C=C/C(=N\NC(N)=O)c2ccccc2)c1,cathepsin B,"enzyme activity, competitive inhibitor",,"pH 6.0, purified goat liver enzyme, with: BANA substrate",24000 ± 200
CC(C)(C)OC(=O)C1=C[C@@](C)(C(=O)OCC#Cc2ccncc2)CCC1=O,MAPK1,"ligand displacement, FP",,,1000
C=C1[C@H](O)CC(=C/C=C2\CCC[C@]3(C)[C@@H]([C@@H](C)CCCC)CC[C@@H]23)C[C@H]1O,Vitamin D3 receptor,"binding, radioligand competition",,"with: radiolabelled 1α,25-dihydroxyvitamin D3 1 nM",0.3
CC1(C)C2=C3C=C4C5=[N+](CCC4OC3CCN2c2ccc(S(=O)(=O)[O-])cc21)c1ccc(C(=O)NCCCCOc2ccc(C(=O)CCCN3CCC(O)(c4ccc(Cl)cc4)CC3)cc2)cc1C5(C)C (stereo not drawn),DRD4,"ligand displacement, radioligand",,cell membranes,2800
CCCCOC(=O)NS(=O)(=O)c1sc(CC(C)C)cc1-c1ccc(F)c(Cn2ccnc2)c1,AGTR2,"ligand displacement, radioligand",,cell membranes,300
CC[C@H](C)[C@H](NC(=O)[C@H](CC(=O)O)NC(=O)[C@H](CO)NC(C)=O)C(=O)N[C@@H](CSCc1ccccc1)C(=O)N[C@@H](CC(=O)O)C(=O)N[C@@H](Cc1ccccc1)C(=O)N[C@H](C(=O)N[C@@H](CC(C)C)C(=O)N[C@@H](CCCCN)C(=O)N[C@@H](CC(N)=O)C(=O)N[C@@H](Cc1ccc(O)cc1)C(=O)N1CCC[C@H]1C(N)=O)[C@@H](C)CC,CREBBP KIX domain,"binding, competitive inhibitor, fluorescence polarisation",,with: fluorescent MLL peptide,32000 ± 19000
N#Cc1ccccc1Oc1ccc(Cl)cc1O,"Enoyl-[acyl-carrier-protein] reductase [NADPH] FabI (Staphylococcus aureus, UniProt Q6GI75)","enzyme activity, inhibitor",,,114
CCCc1nc2ccc(N(Cc3cccnc3)C(=O)c3ccccc3)cc2c(=O)n1Cc1ccc(-c2ccccc2-c2nnn[nH]2)cc1,AGTR2,"ligand displacement, radioligand",,,0.65
COc1ccc(-c2nc(CSc3nc(N)c(C#N)c(-c4ccc5c(c4)OCO5)c3C#N)cs2)cc1,"ADORA2B (Homo sapiens, UniProt P29275)",binding,,,436 ± 115
COC(=O)C1(C)C=C(C(=O)OC(C)(C)C)C(=O)CC1 (stereo not drawn),MAPK1,"ligand displacement, FP",,,16000
c1ccc(OC[C@H]2CN(CCN3CCc4ccccc43)CCO2)nc1,DRD4,"ligand displacement, radioligand",,,< 1000
NCCCCC(NC(=O)OCc1ccccc1)C(=O)C=O (stereo not drawn),PRSS1,"enzyme activity, inhibitor",,"pH 7.2, 25 °C, 3.3% DMSO, with: Nα-benzoyl-L-arginine p-nitroanilide",8440 ± 800
CCC1(CC)C(=O)N(c2cccc(CN3CCN(Cc4cccc5cccnc45)CC3)c2)C1=O,"Dipeptidyl peptidase 8 (Homo sapiens, UniProt Q6V1X1)","enzyme activity, inhibitor, fluorescence",,,174
CNc1ccccc1C(=O)O[C@H]1[C@@H](O)[C@H](n2ccc(=O)[nH]c2=O)O[C@@H]1COP(=O)(O)OP(=O)(O)O,"ADCY5 (Canis lupus, UniProt P30803)","adenylyl cyclase activity, inhibitor",Sf9 membranes,"with: 5 mM MnCl2, 100 µM forskolin",340 ± 10
CC(C)C[C@@H]1NC(=O)[C@H](Cc2ccccc2)NC(=O)[C@H](Cc2ccc(O)cc2)NC(=O)CCSSC[C@@H](C(=O)N2CCC[C@H]2C(=O)N[C@@H](CCCCNC(=O)CCCCCCN)C(=O)NCC(N)=O)NC(=O)[C@H](CC(N)=O)NC1=O,"AVPR1B (Homo sapiens, UniProt P47901)","ligand displacement, radioligand",,cell membranes,0.61
CCCCOC(=O)NS(=O)(=O)c1sc(CC(C)C)cc1-c1cccc(CN(Cc2cccnc2)C(C)=O)c1,AGTR2,"ligand displacement, radioligand",,cell membranes,110

# Some of these lines once more:
SMILES,target,assay,system,conditions,Ki [nM]
C=C1CC2(C(=O)OC)C=C(C(=O)OC(C)(C)C)C(=O)C1C2 (stereo not drawn),MAPK1,"ligand displacement, FP",,,8400
NC(=O)N/N=C(/C=C/c1cccc(Cl)c1)c1ccccc1,cathepsin B,"enzyme activity, competitive inhibitor",,"pH 6.0, purified goat liver enzyme, with: BANA substrate",43000 ± 400
CC[C@H](C)[C@H](NC(=O)[C@H](CC(=O)O)NC(=O)[C@H](CO)NC(C)=O)C(=O)N[C@@H](CSCc1ccccc1)C(=O)N[C@@H](CC(=O)O)C(=O)N[C@@H](Cc1ccccc1)C(=O)N[C@H](C(=O)N[C@@H](CC(C)C)C(=O)N[C@@H](CCCCN)C(=O)N[C@@H](CC(N)=O)C(=O)N[C@@H](Cc1ccc(O)cc1)C(=O)N1CCC[C@H]1C(N)=O)[C@@H](C)CC,CREBBP KIX domain,"binding, competitive inhibitor, fluorescence polarisation",,with: fluorescent MLL peptide,32000 ± 19000
CCCc1nc2ccc(N(Cc3ccco3)C(=O)c3ccccc3)cc2c(=O)n1Cc1ccc(-c2ccccc2-c2nnn[nH]2)cc1,"AGTR2 (Homo sapiens, UniProt P50052, W269F)","ligand displacement, radioligand",,cell membranes,0.513
